Experimental data of several laboratories.
Each line is one published result; not all experiments were run side by side.
Target: Cytochrome P450 1A2 (CYP1A2, Homo sapiens, UniProt P05177)
Sequence of UniProt P05177 (whole entry, looked up): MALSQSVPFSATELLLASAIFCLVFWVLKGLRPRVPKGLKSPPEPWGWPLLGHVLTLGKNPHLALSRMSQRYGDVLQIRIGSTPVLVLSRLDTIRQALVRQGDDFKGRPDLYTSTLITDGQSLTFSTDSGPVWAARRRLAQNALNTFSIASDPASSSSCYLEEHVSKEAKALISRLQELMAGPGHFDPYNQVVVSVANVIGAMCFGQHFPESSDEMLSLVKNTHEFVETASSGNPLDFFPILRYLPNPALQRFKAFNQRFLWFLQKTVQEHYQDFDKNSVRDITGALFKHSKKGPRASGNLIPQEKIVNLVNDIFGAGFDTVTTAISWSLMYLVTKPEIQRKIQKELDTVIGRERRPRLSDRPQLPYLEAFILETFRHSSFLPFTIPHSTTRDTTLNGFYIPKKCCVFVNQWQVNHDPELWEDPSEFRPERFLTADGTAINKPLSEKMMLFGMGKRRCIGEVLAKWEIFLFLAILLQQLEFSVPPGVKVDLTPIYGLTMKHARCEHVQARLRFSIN

| Compound | test | test system | conditions | IC50 [µM] |
| --- | --- | --- | --- | --- |
| C=C(NC(=O)c1csc(-c2nc3c(cc2O)-c2nc(cs2)C(=O)NC(C(C)O)C(=O)NC(=C(C)OC)c2nc(cs2)C(=O)NC2c4nc(cs4)C(=O)NC(COC(=O)c4c5c6c(cccc6n4O)COC(=O)C(OC4CC(C)(O)C(N(C)C)C(C)O4)C2OC5)c2nc-3cs2)n1)C(N)=O (stereo not shown) | enzyme activity, inhibitor |  | pH 7.4 | > 50 |
| CC(C)(C)n1ncc2c(=O)n(Cc3cccc(F)c3)c(NCc3ccc(F)cn3)nc21 | enzyme activity, inhibitor | human liver |  | > 15 |
| C[C@H]1CN(C(=O)c2cn(-c3ccnc(N)n3)c3cc(C#CC4(O)CCCCC4)ccc23)CCN1 | enzyme activity, inhibitor | human, liver microsomes | 10 min | > 50 |
| COc1ccc(-c2coc3cc(O)cc(O)c3c2=O)cc1 | enzyme activity, inhibitor | human, liver microsomes | 15 min | 72.7 |
| OCC1OC(n2cnc3c(NCc4ccc(Br)s4)ncnc32)C(O)C1O (stereo not shown) | enzyme activity, inhibitor, fluorescence |  | pH 7.4, added: 3-cyano-7-ethoxycoumarin | > 10 |
| N=C(N)SCc1ccccc1CSC(=N)N | enzyme activity, inhibitor |  |  | > 10 |
| NC(=O)c1ccc(C(=O)NOCc2ccc(Sc3cccc(Cl)c3)c(C(F)(F)F)c2)cc1 |  | pooled human liver microsomes | 20 min | > 30 |
| O=C(NC1CCC(F)(F)CC1)C(c1cncnc1)N(C(=O)C(F)Cl)c1ccc(OC(F)(F)F)cc1 (stereo not shown) | enzyme activity, inhibitor |  | 10 (unit not given) | > 50 |
| Cc1[nH]nc2c1N=C(c1ccccc1Cl)c1cnc(N3CCOCC3)cc1N2 | enzyme activity, inhibitor | human, liver microsomes |  | > 10 |
| COc1ccc2c(c1OC)O[C@H]1c3ccc(O)cc3OC[C@@H]21 | enzyme activity, inhibitor | human, liver microsomes | 15 min | 149 |

Excerpt of the above:
| Compound | test | test system | conditions | IC50 [µM] |
| --- | --- | --- | --- | --- |
| OCC1OC(n2cnc3c(NCc4ccc(Br)s4)ncnc32)C(O)C1O (stereo not shown) | enzyme activity, inhibitor, fluorescence |  | pH 7.4, added: 3-cyano-7-ethoxycoumarin | > 10 |
